Literature values, collected from citations in different studies.
Compare with care: the assays were run in different laboratories. ± marks the error that the study gave.
CYP3A4: Cytochrome P450 3A4 (CYP3A4, Homo sapiens, UniProt P08684)
UniProt P08684, sequence (whole entry, looked up): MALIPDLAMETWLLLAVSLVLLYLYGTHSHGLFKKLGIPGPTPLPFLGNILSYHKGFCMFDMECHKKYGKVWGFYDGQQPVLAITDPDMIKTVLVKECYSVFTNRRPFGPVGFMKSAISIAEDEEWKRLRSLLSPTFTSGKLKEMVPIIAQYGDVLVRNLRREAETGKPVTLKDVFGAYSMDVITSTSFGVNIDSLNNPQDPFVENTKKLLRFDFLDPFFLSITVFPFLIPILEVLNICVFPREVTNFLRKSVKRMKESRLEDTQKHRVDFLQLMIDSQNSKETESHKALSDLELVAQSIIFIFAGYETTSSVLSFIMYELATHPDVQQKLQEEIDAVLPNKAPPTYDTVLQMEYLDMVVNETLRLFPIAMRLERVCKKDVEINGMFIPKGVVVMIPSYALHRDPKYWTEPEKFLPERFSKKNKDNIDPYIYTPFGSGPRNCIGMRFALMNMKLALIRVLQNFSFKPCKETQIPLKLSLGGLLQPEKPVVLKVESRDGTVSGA
UniProt Q9UNQ0, sequence (whole entry, looked up): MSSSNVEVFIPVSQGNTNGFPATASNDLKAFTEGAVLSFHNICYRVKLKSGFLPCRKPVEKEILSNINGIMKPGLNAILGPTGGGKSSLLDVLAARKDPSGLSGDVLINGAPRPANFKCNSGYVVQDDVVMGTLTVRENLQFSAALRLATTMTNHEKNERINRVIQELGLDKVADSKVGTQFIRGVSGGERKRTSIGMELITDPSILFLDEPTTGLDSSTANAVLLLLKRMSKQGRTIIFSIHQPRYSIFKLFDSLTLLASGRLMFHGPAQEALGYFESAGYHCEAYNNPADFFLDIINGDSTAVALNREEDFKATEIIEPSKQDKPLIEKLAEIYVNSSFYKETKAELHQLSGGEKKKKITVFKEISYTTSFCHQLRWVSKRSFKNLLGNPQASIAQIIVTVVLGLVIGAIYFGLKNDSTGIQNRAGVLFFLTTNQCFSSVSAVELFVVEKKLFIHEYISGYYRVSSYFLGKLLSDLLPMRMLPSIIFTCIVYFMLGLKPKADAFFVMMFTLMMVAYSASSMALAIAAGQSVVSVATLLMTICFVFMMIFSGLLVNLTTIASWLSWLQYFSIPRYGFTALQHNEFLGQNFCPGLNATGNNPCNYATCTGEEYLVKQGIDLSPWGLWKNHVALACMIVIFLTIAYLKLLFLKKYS
UniProt P08183, sequence (whole entry, looked up): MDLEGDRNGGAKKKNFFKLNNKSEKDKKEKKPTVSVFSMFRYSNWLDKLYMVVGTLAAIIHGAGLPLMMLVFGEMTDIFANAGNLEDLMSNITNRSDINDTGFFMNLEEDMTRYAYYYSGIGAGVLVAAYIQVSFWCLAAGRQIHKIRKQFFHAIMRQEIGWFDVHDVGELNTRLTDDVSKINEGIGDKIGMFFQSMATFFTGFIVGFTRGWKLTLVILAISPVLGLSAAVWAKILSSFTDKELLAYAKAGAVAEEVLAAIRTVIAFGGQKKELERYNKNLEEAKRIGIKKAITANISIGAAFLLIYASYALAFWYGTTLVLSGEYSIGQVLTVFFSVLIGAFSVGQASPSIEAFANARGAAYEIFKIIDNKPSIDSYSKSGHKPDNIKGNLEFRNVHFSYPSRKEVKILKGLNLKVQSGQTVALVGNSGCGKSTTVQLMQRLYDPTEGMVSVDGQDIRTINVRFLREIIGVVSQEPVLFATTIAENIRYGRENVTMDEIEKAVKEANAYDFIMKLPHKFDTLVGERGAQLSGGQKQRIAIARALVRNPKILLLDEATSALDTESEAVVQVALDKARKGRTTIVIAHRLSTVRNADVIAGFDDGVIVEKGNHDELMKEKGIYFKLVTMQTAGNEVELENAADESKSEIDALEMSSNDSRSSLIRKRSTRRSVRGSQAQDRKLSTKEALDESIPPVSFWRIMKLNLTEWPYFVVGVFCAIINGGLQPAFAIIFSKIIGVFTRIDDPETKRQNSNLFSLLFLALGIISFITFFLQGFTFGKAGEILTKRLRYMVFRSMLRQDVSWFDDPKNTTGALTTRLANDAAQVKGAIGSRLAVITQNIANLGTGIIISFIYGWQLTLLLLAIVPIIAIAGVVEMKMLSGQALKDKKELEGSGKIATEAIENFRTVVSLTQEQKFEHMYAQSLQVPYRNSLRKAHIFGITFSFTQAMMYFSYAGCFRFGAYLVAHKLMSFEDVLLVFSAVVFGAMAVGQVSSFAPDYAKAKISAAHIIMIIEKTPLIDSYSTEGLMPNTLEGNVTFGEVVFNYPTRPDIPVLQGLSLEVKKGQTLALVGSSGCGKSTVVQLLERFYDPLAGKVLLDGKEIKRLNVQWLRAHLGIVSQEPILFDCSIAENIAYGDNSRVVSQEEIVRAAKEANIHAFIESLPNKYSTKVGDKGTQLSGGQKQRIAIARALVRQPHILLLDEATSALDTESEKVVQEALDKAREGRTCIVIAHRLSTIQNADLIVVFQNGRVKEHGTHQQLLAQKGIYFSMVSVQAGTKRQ
UniProt Q9BRS2, sequence (whole entry, looked up): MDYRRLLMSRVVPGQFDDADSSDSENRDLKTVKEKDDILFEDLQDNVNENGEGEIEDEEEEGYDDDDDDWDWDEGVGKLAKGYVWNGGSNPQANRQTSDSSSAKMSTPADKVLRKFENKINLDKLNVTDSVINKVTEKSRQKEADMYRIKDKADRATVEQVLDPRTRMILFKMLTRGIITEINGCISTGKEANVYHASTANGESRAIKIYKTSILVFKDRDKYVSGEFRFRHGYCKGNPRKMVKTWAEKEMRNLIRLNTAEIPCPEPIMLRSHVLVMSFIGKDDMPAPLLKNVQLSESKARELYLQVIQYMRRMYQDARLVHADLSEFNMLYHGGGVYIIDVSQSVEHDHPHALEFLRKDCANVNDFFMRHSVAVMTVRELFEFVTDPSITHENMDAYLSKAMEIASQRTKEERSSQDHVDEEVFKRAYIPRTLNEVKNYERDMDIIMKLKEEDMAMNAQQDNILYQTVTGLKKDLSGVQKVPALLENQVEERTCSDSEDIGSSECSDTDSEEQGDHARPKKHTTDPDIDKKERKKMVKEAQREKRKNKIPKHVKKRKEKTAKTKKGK

`CNCc1cn(S(=O)(=O)c2cccc(F)c2)c(-c2ccc(F)cc2F)c1OC` has an IC50 of over 100 µM (OATP1B3; transporter uptake, inhibitor).
`C#C[C@]1(O)CC[C@H]2[C@@H]3CCC4=CC(=NO)CC[C@@H]4[C@H]3CC[C@@]21CC` (mixture of isomers) has a fraction metabolized of 0.43 (CYP2B6).
For `O=c1[nH]ncn1-c1ccc(N2CCN(c3ccc(OCC4COC(Cn5cncn5)(c5ccc(Cl)cc5Cl)O4)cc3)CC2)cc1` (centres unmarked), the kcat was 0.001 s⁻¹ (CYP3A4; substrate).
With `CC(F)(F)c1cc(F)ccc1-c1sc2cc(O)ccc2c1Oc1ccc(/C=C/C(=O)O)cc1` the kinact was 0.119 ± 0.0024 min⁻¹ (CYP3A4/5; time-dependent inhibitor).
`CO[C@H]1C[C@@H]2CC[C@@H](C)[C@@](O)(O2)C(=O)C(=O)N2CCCC[C@H]2C(=O)O[C@H]([C@H](C)C[C@@H]2CC[C@@H](O)[C@H](OC)C2)CC(=O)[C@H](C)/C=C(\C)[C@@H](O)[C@@H](OC)C(=O)[C@H](C)C[C@H](C)/C=C/C=C/C=C/1C` gave an intrinsic clearance of 9.33 µL/min/pmol (recombinant human CYP3A4; substrate).
`C[C@]1(c2nc3c(C(N)=O)cccc3[nH]2)CCCN1`: “renal clearance reduction” 1.8 fold (OCT1/2; OCT1/2 double-knockout mice; dose not given; reference: wild type).
The IC50 of `C=C[C@@H]1C[C@]1(NC(=O)[C@@H]1C[C@@H]2CN1C(=O)[C@H](C(C)(C)C)NC(=O)O[C@@H]1C[C@H]1CCCCCc1nc3ccc(OC)cc3nc1O2)C(=O)NS(=O)(=O)C1CC1` is reported as 0.72 µM (OATP1B3 (SLCO1B3) OATP1B1; literature geometric mean).
For `C=CC(=O)Nc1cc(Nc2nccc(-c3cn(C)c4ccccc34)n2)c(OCC(F)(F)F)nc1N(C)CCN(C)C`, the EC50 was 0.25 µM (CYP3A4; enzyme induction).
`O=C(O)C[C@H](O)C[C@H](O)/C=C/c1c(C2CC2)nc2ccccc2c1-c1ccc(F)cc1` — result for “share of hepatic uptake clearance”: 92% (OATP1B1).
`N#CCNC(=O)c1ccc(-c2ccnc(Nc3ccc(N4CCOCC4=O)cc3)n2)cc1` — result for inhibition: “no inhibition” (CYP2B6; enzyme activity, inhibitor; concentration not given).
The IC50 of `COC(=O)N[C@H](C(=O)N1CCC[C@H]1c1nc(-c2ccc3c(c2)O[C@@H](c2ccccc2)n2c-3cc3cc(-c4c[nH]c([C@@H]5CCCN5C(=O)[C@@H](NC(=O)OC)C(C)C)n4)ccc32)c[nH]1)C(C)C` is reported as 0.1 µM (OATP1B3 (SLCO1B3) OATP1B1; literature geometric mean).
With `CN(C)C(=N)N=C(N)N` the CLint was 300 mL/min (MATE; healthy human).
With `CO[C@H]1/C=C/O[C@@]2(C)Oc3c(C)c(O)c4c(O)c(c(/C=N/N5CCN(C)CC5)c(O)c4c3C2=O)NC(=O)/C(C)=C\C=C\[C@H](C)[C@H](O)[C@@H](C)[C@@H](O)[C@@H](C)[C@H](OC(C)=O)[C@@H]1C` the Km was 55 µM (P-glycoprotein (human); substrate).
The IC50 of `CO[C@H]1/C=C/O[C@@]2(C)Oc3c(C)c(O)c4c(O)c(c(/C=N/N5CCN(C)CC5)c(O)c4c3C2=O)NC(=O)/C(C)=C\C=C\[C@H](C)[C@H](O)[C@@H](C)[C@@H](O)[C@@H](C)[C@H](OC(C)=O)[C@@H]1C` is reported as 1.8 µM (OATP1B3 (SLCO1B3) OATP1B1; literature geometric mean).
For `O=C(O)CC1CCN(C(=O)c2ccc(Cl)c(Cn3ccc4cc(C(F)(F)F)cc(Cl)c43)c2Cl)CC1`, “rosuvastatin AUCtau increase” read 55% (ABCG2 (Homo sapiens, UniProt Q9UNQ0); inhibitor; human; oral, 375 mg once daily).
Under “fraction of intrinsic clearance”, `COc1ccc2[nH]c([S@@+]([O-])Cc3ncc(C)c(OC)c3C)nc2c1` is recorded as 27% (CYP3A; sulfone formation; in vitro).
`C[C@H]1O[C@@H](O[C@H]2[C@@H](O)C[C@H](O[C@H]3[C@@H](O)C[C@H](O[C@H]4CC[C@@]5(C)[C@H](CC[C@@H]6[C@@H]5C[C@@H](O)[C@]5(C)[C@@H](C7=CC(=O)OC7)CC[C@]65O)C4)O[C@@H]3C)O[C@@H]2C)C[C@H](O)[C@@H]1O` gave an efflux ratio of about 10 (ABCB1 (Homo sapiens, UniProt P08183); substrate; Caco-2).
The MIC of `CC1(C)S[C@@H]2[C@H](NC(=O)[C@H](N)c3ccccc3)C(=O)N2[C@H]1C(=O)O` is reported as over 16 µg/mL (Enterobacter cloacae; clinical isolate RKI-No_37/14).
With `CCC(C)n1ncn(-c2ccc(N3CCN(c4ccc(OCC5COC(Cn6cncn6)(c6ccc(Cl)cc6Cl)O5)cc4)CC3)cc2)c1=O` (centres unmarked) the CLint was 1 µL/min/pmol (human CYP1A2; hydroxylation pathway).
For `Nc1cc(C(F)(F)F)c(-c2nc(N3CCOCC3)nc(N3CCOCC3)n2)cn1`, the remaining activity was 97% (RIOK1 (Homo sapiens, UniProt Q9BRS2); enzyme activity; 10 µM; reference: untreated).
`CC(C)[C@@H](CC[C@@H](C)[C@H]1CC[C@H]2[C@@H]3[C@H](O)C[C@H]4C[C@@H](NCCCNCCCCN)CC[C@]4(C)[C@H]3CC[C@]12C)OS(=O)(=O)O` gave a cytotoxicity reduction of 79% (α-synuclein; amyloid toxicity; concentration not given).
`CC(O)c1cc(C(=O)N[C@@H](C)Cn2ccc(-c3ccc(C#N)c(Cl)c3)n2)[nH]n1` (some centres unmarked) has an IC50 of 3.8 µM (OATP1B1; literature minimum).
For `CNC(C)C1CCC(N)C(OC2C(N)CC(N)C(OC3OCC(C)(O)C(NC)C3O)C2O)O1` (centres unmarked), the MIC was at most 0.5 µg/mL (Enterobacter cloacae; clinical isolate RKI-No_76/15).
For `COC(=O)N[C@@H](C)CNc1nccc(-c2cn(C(C)C)nc2-c2cc(Cl)cc(NS(C)(=O)=O)c2F)n1`, “steady-state exposure decrease” read about 50% (CYP3A4/5; human; dose not given, auto-induction).
`COc1cc(N2CCC(N3CCN(C)CC3)CC2)ccc1Nc1ncc(Cl)c(Nc2ccccc2P(C)(C)=O)n1` has an AUCinf increase of 101% (CYP3A (human); drug interaction; human; 90 mg, together with: itraconazole 200 mg; reference: compound alone).
With `COC[C@H]1C[C@@H](c2ncc(-c3ccc4c(c3)COc3cc5c(ccc6nc([C@@H]7CC[C@H](C)N7C(=O)[C@@H](NC(=O)OC)C(C)C)[nH]c65)cc3-4)[nH]2)N(C(=O)[C@H](NC(=O)OC)c2ccccc2)C1` the IC50 was 0.127 µM (OATP1B3; literature minimum).
With `O=C(O)CN1CCNCCN(CC(=O)O)CCN(CC(=O)O)CC1` the log KH2 was 9.83 (protonation constant; 0.15 M NaCl).
Under inhibition, `CN[C@@H](C)C(=O)N[C@H]1CN(S(=O)(=O)c2cccc(S(=O)(=O)N3CC[C@H]4CC[C@@H](C(=O)NC(c5ccccc5)c5ccccc5)N4C(=O)[C@@H](NC(=O)[C@H](C)NC)C3)c2)CC[C@H]2CC[C@@H](C(=O)NC(c3ccccc3)c3ccccc3)N2C1=O` is recorded as “no inhibition” (other major human CYP450 enzymes; enzyme activity, inhibitor; concentration not given).
For `CCn1c(=O)c(-c2cc(NC(=O)Nc3ccccc3)c(F)cc2Br)cc2cnc(NC)cc21`, “plasma protein binding” read 99.8% (human serum albumin).
`Cc1ccc(C)c(OCCCC(C)(C)C(=O)O[C@@H]2O[C@H](C(=O)O)[C@@H](O)[C@H](O)[C@H]2O)c1` has an IC50 of 24.3 µM (OATP1B1; literature maximum).
`O=C(O)CN(CCN(CC(=O)O)CC(=O)O)CC(=O)O` has a log KH3 of 2.73 (protonation constant; 0.15 M NaCl).
`C=C[C@@H]1C[C@]1(NC(=O)[C@@H]1C[C@@H]2CN1C(=O)[C@H](C(C)(C)C)NC(=O)O[C@@H]1C[C@H]1CCCCCc1nc3ccc(OC)cc3nc1O2)C(=O)NS(=O)(=O)C1CC1` has an efflux ratio of about 100 (human P-glycoprotein; LLC-PK1 cells transfected with P-glycoprotein; 1 µM; reference: B-A over A-B Papp).
The EC50 of `CO[C@H]1/C=C/O[C@@]2(C)Oc3c(C)c(O)c4c(O)c(c(/C=N/N5CCN(C)CC5)c(O)c4c3C2=O)NC(=O)/C(C)=C\C=C\[C@H](C)[C@H](O)[C@@H](C)[C@@H](O)[C@@H](C)[C@H](OC(C)=O)[C@@H]1C` is reported as 0.07 µM (CYP2B6; enzyme induction; Simcyp compound file).
`Cc1ccc(C)c(OCCCC(C)(C)C(=O)O)c1` gave an IC50 of 4 µM (OATP1B1; literature minimum).
`Cc1ccc(C)c(OCCCC(C)(C)C(=O)O[C@@H]2O[C@H](C(=O)O)[C@@H](O)[C@H](O)[C@H]2O)c1` gave a Ki of 7.9 µM (OATP1B1 (human); transport, inhibitor; lowest published value).

Excerpt of the above:
`C#C[C@]1(O)CC[C@H]2[C@@H]3CCC4=CC(=NO)CC[C@@H]4[C@H]3CC[C@@]21CC` (mixture of isomers) has a fraction metabolized of 0.43 (CYP2B6).
For `O=c1[nH]ncn1-c1ccc(N2CCN(c3ccc(OCC4COC(Cn5cncn5)(c5ccc(Cl)cc5Cl)O4)cc3)CC2)cc1` (centres unmarked), the kcat was 0.001 s⁻¹ (CYP3A4; substrate).
With `CC(F)(F)c1cc(F)ccc1-c1sc2cc(O)ccc2c1Oc1ccc(/C=C/C(=O)O)cc1` the kinact was 0.119 ± 0.0024 min⁻¹ (CYP3A4/5; time-dependent inhibitor).
`CO[C@H]1C[C@@H]2CC[C@@H](C)[C@@](O)(O2)C(=O)C(=O)N2CCCC[C@H]2C(=O)O[C@H]([C@H](C)C[C@@H]2CC[C@@H](O)[C@H](OC)C2)CC(=O)[C@H](C)/C=C(\C)[C@@H](O)[C@@H](OC)C(=O)[C@H](C)C[C@H](C)/C=C/C=C/C=C/1C` gave an intrinsic clearance of 9.33 µL/min/pmol (recombinant human CYP3A4; substrate).
